Experimental data from different studies.
Numbered parts are unrelated; each lists some results of a single study.

Block 1 — technique: universal PBM; form: double-stranded DNA, one strand shown; matrix: in vitro; concentration: not given; direction: higher = stronger binding
Target: Sal-like protein 4, full length isoform B (SALL4, Homo sapiens, UniProt Q9UJQ4-2, residues 1-616)
Notes: 8-mer, flanks averaged, mean of replicates
Residues (chain): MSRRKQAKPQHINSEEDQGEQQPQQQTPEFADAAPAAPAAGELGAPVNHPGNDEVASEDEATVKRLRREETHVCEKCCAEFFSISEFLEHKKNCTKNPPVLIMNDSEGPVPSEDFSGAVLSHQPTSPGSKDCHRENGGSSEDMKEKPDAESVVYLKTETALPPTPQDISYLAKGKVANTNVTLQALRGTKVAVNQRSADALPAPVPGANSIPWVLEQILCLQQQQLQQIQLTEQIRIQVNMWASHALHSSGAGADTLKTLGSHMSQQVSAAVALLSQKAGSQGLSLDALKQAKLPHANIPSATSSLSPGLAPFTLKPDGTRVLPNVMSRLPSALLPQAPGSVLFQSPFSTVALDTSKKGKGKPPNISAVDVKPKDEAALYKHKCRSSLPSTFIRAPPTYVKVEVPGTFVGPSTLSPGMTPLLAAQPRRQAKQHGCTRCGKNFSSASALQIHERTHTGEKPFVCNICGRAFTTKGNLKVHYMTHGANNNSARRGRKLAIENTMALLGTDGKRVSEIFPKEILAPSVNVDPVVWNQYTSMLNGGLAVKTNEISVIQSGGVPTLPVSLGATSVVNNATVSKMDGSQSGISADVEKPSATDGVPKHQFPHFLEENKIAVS
Strand	E-score
CCACGAGG	-0.211
GCTCGAGC	-0.021
AGCCATGA	-0.0333
CAATTCAC	0.19
AGCGCTCA	-0.192
CTTCTAAA	0.129
CCTTCCGA	-0.0181
CTTGTGAA	0.0682
CGTCACGA	-0.0223
CGAGCTAG	-0.0912
AGGTCCAC	-0.258

Block 2 — technique: RNA Bind-n-Seq; form: RNA; matrix: in vitro; concentration: 200 nM; notes: whole 134-nt RNA, ends assumed; together with: 150 mM LiCl; reference: input library; direction: higher = stronger binding; all molecules: 7-deaza-guanosine replaces G
Target: Ras GTPase-activating protein-binding protein 1, full length (G3BP1, Homo sapiens, UniProt Q13283)
UniProt Q13283, sequence (whole entry, looked up): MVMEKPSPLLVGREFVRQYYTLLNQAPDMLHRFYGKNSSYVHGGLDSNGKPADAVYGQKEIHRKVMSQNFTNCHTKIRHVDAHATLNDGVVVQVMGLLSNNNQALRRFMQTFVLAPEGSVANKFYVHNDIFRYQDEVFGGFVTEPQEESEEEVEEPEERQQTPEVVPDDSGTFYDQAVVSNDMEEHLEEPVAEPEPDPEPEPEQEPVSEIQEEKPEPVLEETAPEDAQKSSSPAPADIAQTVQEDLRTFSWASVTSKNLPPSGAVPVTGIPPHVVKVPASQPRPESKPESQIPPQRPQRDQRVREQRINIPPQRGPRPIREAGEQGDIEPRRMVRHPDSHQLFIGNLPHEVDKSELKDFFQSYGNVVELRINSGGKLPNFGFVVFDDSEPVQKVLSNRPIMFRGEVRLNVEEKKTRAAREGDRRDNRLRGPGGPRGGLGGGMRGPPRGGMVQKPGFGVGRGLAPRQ
Strand	log2 enrichment
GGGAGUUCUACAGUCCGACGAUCGUCCUGUGCUACACAUCGUAUGUACCGAAUCGGGAAAAAGGGGAAAAAGGAAAAAGGGAAAGUAUUAUGUUACGCCGUUCGGAUCUGCACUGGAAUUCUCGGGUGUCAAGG	0.135
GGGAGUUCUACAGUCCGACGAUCCCUCAAGUCCUGUGCUACACAUCGUAUGUACCGAAUCGGAAGGAAGGGAAGGAAAGUAUUAUGUUACGCCGUUCGGAUCUGCACUUCCAGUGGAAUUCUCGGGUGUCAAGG	-0.167
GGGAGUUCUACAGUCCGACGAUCUGGAAGCUCAUACGACUGUGAAAGAAGCUGAGGAUGACAACAUCUCGGUCACAAUCCAGGCUGAAGAUGCCAUCACUCUGGAUUUUGAUGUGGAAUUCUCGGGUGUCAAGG	-2.07
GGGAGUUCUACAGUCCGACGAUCAGUCCUGUGCUACACAUCGUAUGUACCGAAUCGGGUUUUUGGGUUUUUUUGGGUGGGAAAGUAUUAUGUUACGCCGUUCGGAUCUGCACUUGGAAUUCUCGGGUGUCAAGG	-0.355
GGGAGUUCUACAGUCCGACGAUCACCAUGCAGGUGGGAAACUUUGGGAAGUGGGGCAAGGGGGGGAUAGGGAGGGGGGUAACACUUUGGGAACAGGUGGUCCCAGGUCGUUUCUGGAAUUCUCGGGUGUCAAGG	0.303
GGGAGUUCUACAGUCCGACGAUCAGUCCUGUGCUACACAUCGUAUGUACCGAAUCGGGGCCCCGGGCCCCGGGGCCCCGGAAAGUAUUAUGUUACGCCGUUCGGAUCUGCACUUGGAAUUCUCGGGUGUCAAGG	-0.0682

Block 3 — technique: aptamer microarray, sandwich; form: DNA with 2'F-ANA; matrix: in vitro; concentration: 200 nM; together with: Cy3 exosite-II aptamer, 400 nM; direction: higher = stronger binding; strand: GGTTGGTGTGGTTGG
Target: Prothrombin, mature alpha-thrombin (F2, Homo sapiens, UniProt P00734)
Notes: whole 15-mer aptamer, many near background
Modification	mean fluorescence intensity [a.u.]
2'F-ANA at 1 2 5 6 8 10 15	237
2'F-ANA at 1 4 8 9 10 12 13 14	49.4
2'F-ANA at 1 2 5 7 10 13 14 15	68.5
2'F-ANA at 2 4 8 10 11 14 15	59.3
2'F-ANA at 1 2 3 5 7 8 9 11 12 13 15	77.1
2'F-ANA at 1 3 4 5 7 10 11 13 14	44.8
2'F-ANA at 2 4 10 11 12 13 14 15	68.7
2'F-ANA at 4 5 7 11 12 15	95.2
2'F-ANA at 1 3 6 7 8 9 11 13 14	156

Single results of other studies
Substance	target	test	system	conditions	how to read	quantity	value
PhoQ, residues 284 288 289 292 302 303 SLSVQF	PhoP, residues 12 14 15 18 19 NQFFI (Escherichia coli, UniProt P23836)	Sort-seq, measured: YFP reporter	E. coli	PhoQ-PhoP variant library, together with: 10 µM Mg2+	reference: high Mg2+ state, higher = stronger signaling	fold induction	13.7

For quick reference, copied from above (block 3):
Modification	mean fluorescence intensity [a.u.]
2'F-ANA at 1 2 5 7 10 13 14 15	68.5
2'F-ANA at 1 2 5 6 8 10 15	237
